Published values of several laboratories.
Parts stem from different laboratories: compare values within a part only. Substitutions count along the parent as printed.

Study 1
Target: CCNF, cyclin fold, Cln2 fusion (human)
Method: yeast growth competition, sequencing
Matrix: yeast
Setting: strong parent motif
Baseline: not given
Direction: higher = stronger binding
Endpoint: normalised enrichment score
Parent: AKAP12 docking peptide (human); GSPLKKLFTSTGL
GAPLKKLFTSTGL [S2A]: 2.17
GSPLKKLFTSTGA [L13A]: 1.54
GSALKKLFTSTGL [P3A]: 2.49
GSPLKKLFTATGL [S10A]: 1.66
GSPLAKLFTSTGL [K5A]: 0.885
GSPLRKLLTSTGL [K5R F8L]: 1.32
ASPLKKLFTSTGL [G1A]: 1.41

Study 2
Target: ABI1, truncated, D143A, DHFR fusion (Arabidopsis thaliana)
Method: DHFR PCA, deep sequencing
Matrix: yeast
Setting: methotrexate growth selection, single substitutions
Together with: (+)-ABA 0.11 µM
Baseline: wild-type fitted maximum
Direction: higher = stronger binding
Endpoint: relative binding score
Parent: PYL1, truncated, DHFR fusion (Arabidopsis thaliana); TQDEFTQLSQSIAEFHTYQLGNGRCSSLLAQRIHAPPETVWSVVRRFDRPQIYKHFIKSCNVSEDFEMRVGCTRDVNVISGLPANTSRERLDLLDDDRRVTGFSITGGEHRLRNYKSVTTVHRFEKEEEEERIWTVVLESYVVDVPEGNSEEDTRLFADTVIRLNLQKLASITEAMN; partner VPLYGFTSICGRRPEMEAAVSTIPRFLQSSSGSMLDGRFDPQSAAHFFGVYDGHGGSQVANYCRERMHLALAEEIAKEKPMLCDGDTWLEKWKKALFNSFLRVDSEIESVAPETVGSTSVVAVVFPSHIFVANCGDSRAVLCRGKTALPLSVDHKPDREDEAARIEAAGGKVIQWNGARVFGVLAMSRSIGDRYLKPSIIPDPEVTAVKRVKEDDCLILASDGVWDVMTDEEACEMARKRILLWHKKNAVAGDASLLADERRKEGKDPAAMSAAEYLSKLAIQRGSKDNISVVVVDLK
D96S: -6.53%
I79C: 37.6%
P146K: -0.928%
R45W: -3.35%
H55P: 86.1%
P37T: 7.42%
S171I: 13%
K54Q: 10.7%
I79G: 1.05%
H34N: 46.6%
R49K: 50.2%
Q19P: 47.9%
F47Q: -3.16%
E131W: 18.3%
G71T: -3.05%

Study 3
Target: Centromere-binding protein 1, full length, N-terminal tag (CBF1, Saccharomyces cerevisiae, UniProt P17106, residues 1-351)
UniProt P17106, sequence (whole entry, looked up): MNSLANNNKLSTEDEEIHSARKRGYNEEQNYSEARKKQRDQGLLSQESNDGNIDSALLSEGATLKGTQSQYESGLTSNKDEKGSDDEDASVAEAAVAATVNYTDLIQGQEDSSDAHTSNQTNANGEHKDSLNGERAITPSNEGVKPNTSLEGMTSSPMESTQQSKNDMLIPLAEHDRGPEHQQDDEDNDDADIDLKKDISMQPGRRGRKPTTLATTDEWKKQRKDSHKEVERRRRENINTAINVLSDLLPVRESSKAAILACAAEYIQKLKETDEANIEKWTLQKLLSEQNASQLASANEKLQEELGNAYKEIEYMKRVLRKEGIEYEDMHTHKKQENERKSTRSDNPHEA
Method: protein-binding microarray
Form: double-stranded DNA, one strand shown
Matrix: in vitro
Concentration: 0.8 µM
Setting: whole 60-bp probe, no competitor
Direction: higher = stronger binding
Endpoint: fluorescence intensity
Constant ends, left off below: … GTCTTGATTCGCTTGACGCTGCTG
GAATGTGCGAGGGCCCACGTGGCTTAATACAACTAG: 3680 a.u.
GAAAGAAAGAGCAGTGATGTCAGCGGTAATGGCTAG: 477 a.u.
CTAAAAAAAAAAGATCACGAAAGTATCCCACGCTTC: 565 a.u.
GAACCCCCGAATCTTCTCGTCACGGAAGACCGTTAG: 505 a.u.
CTATGTCGTGTCTAGCACGTGACGTAGAACTGTTTC: 15200 a.u.
GAAGCTTTACAGTGACACCAAACATAAGGAGGGTAG: 533 a.u.
TGTACGAAGCTATTGCGTGTGTTTATAGTAGTTAGG: 530 a.u.
CCTAACTACTATACACGTGCCACATAGCTTCGTACA: 7000 a.u.
GAATCGGAACGGCATGTGACGGTTTGTGCTTTTTAG: 1240 a.u.
GAAACCGCTTTAAATCTGATGTTCTGCGCTTTCTAG: 522 a.u.
CTAGAACAATCCAAAGTCACCTTTATTGGCGATTTC: 490 a.u.
CTATTGTTACCTCGTCACCTGTTATCGGTTGAATTC: 1220 a.u.
CTAAACGGCATCTCTCACCTGATTGTTCTCAAGTTC: 624 a.u.
GAACTTTCTCTTCCCCGCGTGTTTTCCGTACACTAG: 545 a.u.
TGTACGAAGCTATGTCACGAGAGTATAGTAGTTAGG: 1290 a.u.
CTATTTTGGCTTCATCACGCTCGTCAGTTGAGCTTC: 519 a.u.
CTAACAATCCAAAGTCACCTTTATTGGCGATATTTC: 515 a.u.
CTAATTGTTGAGAATCTGGTGAAGGTTTTCTTTTTC: 486 a.u.
TGTACGAAGCTATGACACGTGTGTATAGTAGTTAGG: 4260 a.u.

Study 4
Target: Sal-like protein 4, full length isoform A (SALL4, Homo sapiens, UniProt Q9UJQ4, residues 1-1053)
UniProt Q9UJQ4, sequence (whole entry, looked up): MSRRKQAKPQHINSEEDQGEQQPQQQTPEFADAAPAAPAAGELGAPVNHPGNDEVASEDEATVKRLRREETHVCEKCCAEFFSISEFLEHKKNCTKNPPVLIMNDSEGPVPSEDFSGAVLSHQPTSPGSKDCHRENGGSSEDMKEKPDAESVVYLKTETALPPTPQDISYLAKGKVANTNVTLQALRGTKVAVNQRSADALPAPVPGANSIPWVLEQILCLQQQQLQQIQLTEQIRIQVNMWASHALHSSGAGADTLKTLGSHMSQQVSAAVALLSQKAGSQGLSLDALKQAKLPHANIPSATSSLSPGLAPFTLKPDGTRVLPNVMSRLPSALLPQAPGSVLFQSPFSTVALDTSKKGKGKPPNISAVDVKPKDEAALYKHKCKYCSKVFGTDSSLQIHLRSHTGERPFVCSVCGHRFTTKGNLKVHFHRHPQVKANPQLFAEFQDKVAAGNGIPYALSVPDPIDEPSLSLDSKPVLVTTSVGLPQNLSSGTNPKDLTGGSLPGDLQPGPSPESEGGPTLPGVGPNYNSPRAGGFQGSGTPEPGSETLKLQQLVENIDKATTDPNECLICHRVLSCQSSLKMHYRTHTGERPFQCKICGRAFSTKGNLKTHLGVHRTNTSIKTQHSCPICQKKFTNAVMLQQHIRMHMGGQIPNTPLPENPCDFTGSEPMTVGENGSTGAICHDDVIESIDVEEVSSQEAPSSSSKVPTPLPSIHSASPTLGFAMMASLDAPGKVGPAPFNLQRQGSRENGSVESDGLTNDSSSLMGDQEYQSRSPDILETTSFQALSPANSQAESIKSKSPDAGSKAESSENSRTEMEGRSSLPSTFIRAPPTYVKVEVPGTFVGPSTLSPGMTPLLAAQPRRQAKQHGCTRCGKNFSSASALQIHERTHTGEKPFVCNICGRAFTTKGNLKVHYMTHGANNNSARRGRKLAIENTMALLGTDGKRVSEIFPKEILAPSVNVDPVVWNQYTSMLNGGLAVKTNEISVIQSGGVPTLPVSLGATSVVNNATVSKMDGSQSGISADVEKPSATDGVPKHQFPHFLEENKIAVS
Method: universal PBM
Form: double-stranded DNA, one strand shown
Matrix: in vitro
Concentration: 600 nM
Setting: 8-mer, flanks averaged, mean of replicates
Direction: higher = stronger binding
Endpoint: E-score
AATCTTTG: 0.157
GAAAATTC: 0.14
TAAAGTTA: 0.267
TCCCCGGA: -0.338
CAAGTGTA: 0.103
ACATCCAA: 0.121
ACCTAGTA: -0.0304
CATAAGGG: 0.14
GAAAGTTC: -0.033
GACCACTC: -0.251
GAATAAGA: 0.186
CCTCTTAA: 0.0731
CGCTTACA: -0.109
CTCACATC: -0.00173
GGAATTCA: 0.126

Some of these lines once more (study 2):
G71T: -3.05%
Q19P: 47.9%
R45W: -3.35%
E131W: 18.3%
